{"data": "Assay results pooled from the literature", "Beta-lactamase CTX-M-27": "Beta-lactamase CTX-M-27 (Escherichia coli, UniProt Q840M4)", "note": "Protocols differ between the studies behind these lines. ± gives the spread as reported.", "UniProt P00691, sequence (whole entry, looked up)": "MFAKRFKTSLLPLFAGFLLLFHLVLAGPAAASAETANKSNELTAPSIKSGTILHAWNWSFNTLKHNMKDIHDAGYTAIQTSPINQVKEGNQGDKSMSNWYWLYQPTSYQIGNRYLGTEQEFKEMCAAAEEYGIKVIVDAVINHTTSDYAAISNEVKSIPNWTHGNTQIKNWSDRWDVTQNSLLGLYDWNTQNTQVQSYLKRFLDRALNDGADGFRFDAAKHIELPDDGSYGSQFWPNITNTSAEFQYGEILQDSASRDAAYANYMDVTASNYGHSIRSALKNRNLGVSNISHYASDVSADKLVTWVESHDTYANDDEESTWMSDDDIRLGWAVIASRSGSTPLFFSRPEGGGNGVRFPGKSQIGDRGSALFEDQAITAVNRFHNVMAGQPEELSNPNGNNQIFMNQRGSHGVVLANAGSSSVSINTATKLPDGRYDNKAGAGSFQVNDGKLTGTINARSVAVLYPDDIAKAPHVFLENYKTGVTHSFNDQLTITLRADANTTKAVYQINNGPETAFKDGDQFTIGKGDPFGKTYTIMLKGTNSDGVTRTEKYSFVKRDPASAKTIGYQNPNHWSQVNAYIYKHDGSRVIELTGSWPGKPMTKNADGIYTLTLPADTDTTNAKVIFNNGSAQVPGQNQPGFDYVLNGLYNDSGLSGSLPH", "UniProt P10415, sequence (whole entry, unmodified, looked up)": "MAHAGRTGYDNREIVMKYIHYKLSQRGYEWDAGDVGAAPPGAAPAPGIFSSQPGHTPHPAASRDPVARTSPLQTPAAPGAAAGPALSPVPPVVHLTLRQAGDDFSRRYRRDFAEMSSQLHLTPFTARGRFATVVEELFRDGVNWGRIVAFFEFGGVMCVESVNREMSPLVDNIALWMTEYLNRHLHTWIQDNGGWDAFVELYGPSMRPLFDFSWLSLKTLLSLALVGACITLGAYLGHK", "UniProt Q13526, sequence (whole entry, looked up)": "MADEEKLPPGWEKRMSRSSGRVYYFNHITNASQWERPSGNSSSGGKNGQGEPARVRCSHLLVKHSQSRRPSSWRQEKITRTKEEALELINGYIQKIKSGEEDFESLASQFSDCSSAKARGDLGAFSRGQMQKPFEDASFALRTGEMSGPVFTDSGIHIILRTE", "UniProt O15392, sequence (whole entry, unmodified, looked up)": "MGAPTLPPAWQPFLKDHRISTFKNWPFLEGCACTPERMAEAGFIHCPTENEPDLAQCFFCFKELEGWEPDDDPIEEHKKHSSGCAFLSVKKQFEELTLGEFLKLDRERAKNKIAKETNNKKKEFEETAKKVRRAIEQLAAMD", "UniProt Q96P16, sequence (whole entry, looked up)": "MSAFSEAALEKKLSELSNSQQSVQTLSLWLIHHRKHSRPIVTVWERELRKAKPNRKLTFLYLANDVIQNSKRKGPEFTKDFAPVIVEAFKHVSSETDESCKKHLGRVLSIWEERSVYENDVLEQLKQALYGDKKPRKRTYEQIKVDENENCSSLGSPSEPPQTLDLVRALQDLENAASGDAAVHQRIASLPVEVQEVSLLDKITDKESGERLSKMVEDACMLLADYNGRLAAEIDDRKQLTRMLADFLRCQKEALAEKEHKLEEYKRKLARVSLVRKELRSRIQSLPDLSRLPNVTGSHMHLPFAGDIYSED", "UniProt Q16762, sequence (whole entry, looked up)": "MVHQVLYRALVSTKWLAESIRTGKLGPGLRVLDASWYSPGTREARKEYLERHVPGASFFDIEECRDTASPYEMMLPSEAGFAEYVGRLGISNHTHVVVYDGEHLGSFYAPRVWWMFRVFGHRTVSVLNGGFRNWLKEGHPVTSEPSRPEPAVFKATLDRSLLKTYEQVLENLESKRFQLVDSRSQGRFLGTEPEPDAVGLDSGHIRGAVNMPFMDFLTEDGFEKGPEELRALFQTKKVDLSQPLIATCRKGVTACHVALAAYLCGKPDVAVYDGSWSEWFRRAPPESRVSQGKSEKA", "UniProt Q07741, sequence (whole entry, looked up)": "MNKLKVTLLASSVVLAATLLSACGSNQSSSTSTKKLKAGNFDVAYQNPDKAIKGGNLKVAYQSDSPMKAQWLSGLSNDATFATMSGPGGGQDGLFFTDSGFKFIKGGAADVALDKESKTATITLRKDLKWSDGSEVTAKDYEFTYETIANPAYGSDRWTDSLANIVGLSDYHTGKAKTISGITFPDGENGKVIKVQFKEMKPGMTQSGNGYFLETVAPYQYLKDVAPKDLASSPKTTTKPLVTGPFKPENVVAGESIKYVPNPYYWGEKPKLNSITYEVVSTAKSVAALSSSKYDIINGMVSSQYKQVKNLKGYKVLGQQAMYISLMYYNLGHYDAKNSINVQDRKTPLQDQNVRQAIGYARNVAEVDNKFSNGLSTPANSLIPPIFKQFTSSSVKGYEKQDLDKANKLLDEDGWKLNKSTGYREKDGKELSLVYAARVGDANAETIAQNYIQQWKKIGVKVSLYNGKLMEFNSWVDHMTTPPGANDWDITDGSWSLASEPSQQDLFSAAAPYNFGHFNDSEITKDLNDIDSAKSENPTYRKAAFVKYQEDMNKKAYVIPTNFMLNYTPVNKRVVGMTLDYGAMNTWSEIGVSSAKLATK", "UniProt Q9Y237, sequence (whole entry, looked up)": "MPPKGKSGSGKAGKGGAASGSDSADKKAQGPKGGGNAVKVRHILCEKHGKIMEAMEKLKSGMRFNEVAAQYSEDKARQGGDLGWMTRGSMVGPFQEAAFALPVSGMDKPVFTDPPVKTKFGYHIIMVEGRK"}
{"SMILES": "C[C@H](N)C(=O)N[C@@H](CCCNC(=N)N)C(=O)N[C@H](C(=O)N[C@@H](CCCCN)C(=O)N[C@@H](CCC(N)=O)C(=O)N[C@H](C(=O)N[C@@H](C)C(=O)N[C@@H](CCCNC(=N)N)C(=O)N[C@@H](CCCCN)C(=O)N[C@@H](CO)C(=O)N[C@H](C(=O)NCC(=O)O)[C@@H](C)O)[C@@H](C)O)[C@@H](C)OP(=O)(O)O", "target": "BIRC5 (Homo sapiens, UniProt O15392, H80R)", "test": "binding, ITC", "conditions": "pH 7.8", "Kd [µM]": 60.2}
{"SMILES": "Nc1ncnc2c1ncn2[C@@H]1O[C@H](COc2cncc(CCC(=O)c3ccccc3C(=O)O)c2)[C@@H](O)[C@H]1O", "target": "2-succinylbenzoate--CoA ligase (menE, Escherichia coli, UniProt P37353)", "test": "isothermal titration calorimetry", "conditions": "22 °C", "Kd [µM]": 0.505}
{"SMILES": "N[C@@H](Cc1c[nH]c2ccccc12)C(=O)O", "target": "txtE (Streptomyces scabiei, UniProt C9ZDC6)", "test": "binding", "conditions": "pH 8", "Kd [µM]": 39}
{"SMILES": "CC(C)P(=[Se])(NP(=[Se])(C(C)C)C(C)C)C(C)C", "target": "Alpha-amylase (Bacillus subtilis, UniProt P00691)", "test": "fluorescence quenching", "conditions": "298 K", "Kd [µM]": 6250}
{"SMILES": "N=C(N)NCCC[C@H](NC(=O)[C@H](Cc1ccccc1)NC(=O)[C@@H]1CCCN1C(=O)[C@H](CO)NC(=O)[C@H](Cc1ccccc1)NC(=O)CNC(=O)[C@@H]1CCCN1C(=O)[C@@H]1CCCN1C(=O)[C@@H](N)CCCNC(=N)N)C(=O)N[C@@H](CCCCNS(=O)(=O)c1ccc(C2=c3cc4c5c(c3Oc3c2cc2c6c3CCCN6CCC2)CCC[N+]=5CCC4)c(S(=O)(=O)[O-])c1)C(=O)O", "target": "Oligopeptide-binding protein OppA (oppA, Lactococcus lactis subsp. lactis, UniProt Q07741)", "test": "binding, fluorescence anisotropy", "conditions": "pH 8, 18 °C, together with: dye-labelled peptide", "Kd [µM]": "20 ± 1"}
{"SMILES": "O=C(Nc1cccc(-c2nn[nH]n2)c1)c1cc(-c2nn[nH]n2)cc(C(F)(F)F)c1", "target": "Beta-lactamase CTX-M-27", "test": "surface plasmon resonance", "conditions": "25 °C", "Kd [µM]": "0.292 ± 0.004"}
{"SMILES": "O=C1SCCC1NC(C(=O)NCc1ccccc1)C1CC1 (centres unmarked)", "target": "TST (Homo sapiens, UniProt Q16762)", "test": "binding, MST", "Kd [µM]": 18.3}
{"SMILES": "N#CC1(c2ccc3c(N)ncnn23)OC(COP(=O)(O)OP(=O)(O)OP(=O)(O)O)C(O)C1O (centres unmarked)", "target": "Albumin (ALB, Homo sapiens, UniProt P02768)", "test": "binding", "system": "human, serum albumin", "conditions": "pH 6", "Kd [µM]": 0.839}
{"SMILES": "O=C(CCCN1CCC2(CC1)C(=O)NCN2c1ccccc1)N(Cc1ccsc1)c1ccccc1", "target": "PDE6D (Homo sapiens, UniProt O43924)", "test": "binding", "Kd [µM]": "1.24 ± 0.106"}
{"SMILES": "CC(C)C[C@H](NC(=O)[C@@H]1CSSC[C@@H]2NC(=O)[C@H](CC(N)=O)NC(=O)[C@@H](N)CSSC[C@H](NC(=O)[C@H](CC(C)C)NC(=O)[C@H](Cc3ccccc3)NC(=O)[C@H]([C@@H](C)O)NC(=O)[C@H](CCC(=O)O)NC(=O)[C@@H]3CCCN3C(=O)[C@H](C)NC(=O)[C@H](CCCCN)NC2=O)C(=O)N[C@@H](Cc2ccc(O)cc2)C(=O)N[C@@H](Cc2c[nH]c3ccccc23)C(=O)N[C@@H](CCCNC(=N)N)C(=O)N1)C(=O)N[C@@H](CCC(N)=O)C(=O)N[C@@H](Cc1c[nH]cn1)C(N)=O", "target": "Protein Mdm4, residues 24-108 (MDM4, Homo sapiens, UniProt O15151)", "test": "binding, SPR competition", "conditions": "synthetic MDMX 24-108, together with: immobilized p53 peptide 15-29", "Kd [µM]": "0.0114 ± 0.0023"}
{"SMILES": "CC[C@H](C)[C@H](NC(=O)CNC(=O)[C@H](CCCNC(=N)N)NC(=O)[C@H](CCCCN)NC(=O)CNC(=O)[C@H](CC(N)=O)NC(=O)CNC(=O)CNC(=O)CNC(=O)[C@H](CC(C)C)NC(=O)[C@H](C)NC(=O)CNC(=O)[C@H](Cc1c[nH]c2ccccc12)NC(=O)[C@H](Cc1ccc(O)cc1)NC(=O)CNC(=O)[C@H](CCCNC(=N)N)NC(=O)[C@H](CCSC)NC(=O)CNC(=O)[C@H](CCCCN)NC(=O)[C@H](CC(N)=O)NC(=O)[C@H](Cc1ccccc1)NC(=O)[C@H](CCCCN)NC(=O)[C@@H](N)CC(N)=O)C(=O)N[C@@H](CCCNC(=N)N)C(=O)NCC(=O)N[C@@H](Cc1ccc(O)cc1)C(=O)N[C@@H](CC(=O)O)C(=O)O", "target": "ERBB2 (Homo sapiens, UniProt P04626)", "test": "binding, SPR", "Kd [µM]": 0.346}
{"SMILES": "COC(=O)[C@H](Cc1ccccc1)NC(=O)[C@@H]1CCCN1C(=O)[C@H](CCCCNC(=O)OCc1ccccc1)NC(=O)[C@H](C)NC(C)=O", "target": "Peptidyl-prolyl cis-trans isomerase NIMA-interacting 4 (Homo sapiens, UniProt Q9Y237)", "test": "binding, label-free Epic", "system": "PBS", "conditions": "pH 7.4, 0.5% DMSO", "Kd [µM]": "28.2 ± 7"}
{"SMILES": "C[C@H](NC(=O)[C@@H](N)Cc1ccc(O)cc1)C(=O)NCC(=O)N[C@@H](COP(=O)(O)O)C(=O)N[C@H](C(=O)N[C@@H](CC(=O)O)C(=O)N[C@@H](CCC(=O)O)C(=O)N[C@@H](CC(N)=O)C(=O)N[C@H](C(=O)N[C@@H](CC(=O)O)C(=O)N[C@@H](CO)C(=O)N[C@@H](CCC(=O)O)C(=O)O)[C@@H](C)O)[C@@H](C)OP(=O)(O)O", "target": "Bifunctional polynucleotide phosphatase/kinase, FHA domain (Homo sapiens, UniProt Q96T60)", "test": "binding, ITC", "conditions": "pH 7.5, 10 °C, PNK FHA domain", "Kd [µM]": 1.23}
{"SMILES": "C[C@@H](O)[C@H](NC(=O)[C@@H]1CCCN1C(=O)[C@H](CO)NC(=O)[C@H](Cc1ccc(O)cc1)NC(=O)[C@H](COP(=O)(O)O)NC(=O)[C@@H]1CCCN1C(=O)[C@H](COP(=O)(O)O)NC(=O)[C@@H](NC(=O)[C@@H]1CCCN1C(=O)[C@H](CO)NC(=O)[C@H](Cc1ccc(O)cc1)NC(=O)[C@H](CO)NC(=O)[C@@H]1CCCN1C(=O)[C@@H](N)CO)[C@@H](C)O)C(=O)N[C@@H](COP(=O)(O)O)C(=O)N1CCC[C@H]1C(=O)N[C@@H](COP(=O)(O)O)C(=O)N[C@@H](Cc1ccc(O)cc1)C(=O)N[C@@H](CO)C(=O)O", "target": "Regulation of nuclear pre-mRNA domain-containing protein 1A, CID domain (RPRD1A, Homo sapiens, UniProt Q96P16)", "test": "isothermal titration calorimetry", "conditions": "pH 7.5, 25 °C", "Kd [µM]": "> 1000"}
{"SMILES": "COC(=O)[C@H](Cc1ccccc1)NC(=O)[C@@H]1CCCN1C(=O)[C@H](CCCCN)NC(=O)[C@H](C)NC(C)=O", "target": "PIN1 (Homo sapiens, UniProt Q13526)", "test": "binding", "conditions": "pH 7.4", "Kd [µM]": 22.4}
{"SMILES": "O=C(Nc1cccc(-c2nn[nH]n2)c1)c1cc(-c2ncccn2)cc(C(F)(F)F)c1", "target": "Beta-lactamase CTX-M-27", "test": "surface plasmon resonance", "conditions": "25 °C", "Kd [µM]": "0.834 ± 0.024"}
{"SMILES": "CSCC[C@H](N)C(=O)N[C@@H](CC(=O)O)C(=O)N[C@@H](CO)C(=O)N[C@@H](Cc1ccccc1)C(=O)N[C@@H](CC(N)=O)C(=O)N[C@@H](Cc1ccc(O)cc1)C(=O)N[C@H](C(=O)N[C@H](C(=O)N1CCC[C@H]1C(=O)N[C@@H](CC(=O)O)C(=O)N[C@@H](Cc1ccc(O)cc1)C(=O)NCC(=O)N[C@@H](Cc1c[nH]cn1)C(=O)N[C@@H](Cc1ccc(O)cc1)C(=O)N[C@@H](CC(=O)O)C(=O)N[C@@H](CC(=O)O)C(=O)N[C@@H](CCCCN)C(=O)N[C@@H](CC(=O)O)C(=O)N[C@H](C(=O)N[C@@H](CC(C)C)C(=O)N[C@@H](CC(=O)O)C(=O)N[C@@H](CC(C)C)C(=O)N[C@@H](CC(N)=O)C(=O)N[C@H](C(=O)N1CCC[C@H]1C(=O)N[C@H](C(=O)N[C@@H](CC(=O)O)C(=O)N[C@@H](CCCCN)C(=O)O)C(C)C)[C@@H](C)O)[C@@H](C)O)[C@@H](C)O)[C@@H](C)O", "target": "Complement C5, C5a fragment (Homo sapiens, UniProt P01031)", "test": "circular dichroism titration", "conditions": "pH 7.4, 25 °C", "Kd [µM]": "~0.126"}
{"SMILES": "N[C@@H](Cc1ccc(O)c(I)c1)C(=O)O", "target": "Iodotyrosine deiodinase (IYD, Thermotoga neapolitana, UniProt B9K712, M41A/Y112A)", "test": "FMN fluorescence quenching", "conditions": "25 °C, M41A/Y112A variant", "Kd [µM]": "0.024 ± 0.002"}
{"SMILES": "O=C(Nc1cccc(-c2nn[nH]n2)c1)c1cc(-c2cccs2)cc(C(F)(F)F)c1", "target": "Beta-lactamase CTX-M-27", "test": "surface plasmon resonance", "conditions": "25 °C", "Kd [µM]": "13.8 ± 1.2"}
{"SMILES": "CC[C@H](C)[C@H](NC(=O)[C@H](CS)NC(=O)[C@H](CCC(N)=O)NC(=O)[C@H](CC(C)C)NC(=O)[C@H](CCCCN)NC(=O)[C@H](CCCNC(=N)N)NC(=O)[C@H](C)NC(=O)[C@@H](NC(=O)[C@H](CCC(N)=O)NC(=O)[C@@H](NC(=O)[C@H](CCC(=O)O)NC(=O)[C@H](C)NC(=O)[C@H](CCC(N)=O)NC(=O)[C@@H](N)Cc1c[nH]cn1)C(C)C)[C@@H](C)CC)C(=O)N[C@@H](C)C(=O)N[C@@H](CC(=O)O)C(=O)N[C@@H](CCC(N)=O)C(=O)N[C@@H](Cc1ccccc1)C(=O)N[C@@H](Cc1c[nH]cn1)C(=O)N[C@@H](CCCNC(=N)N)C(=O)N[C@@H](CC(C)C)C(=O)N[C@@H](Cc1c[nH]cn1)C(=O)N[C@H](C(=O)N[C@@H](CCC(N)=O)C(=O)N[C@@H](CCC(N)=O)C(=O)O)C(C)C", "target": "BCL2 (Homo sapiens, UniProt P10415, D111A)", "test": "fluorescence polarization", "conditions": "fluorescently labelled compound", "Kd [µM]": "> 100"}
{"note": "Repeated from above:"}
{"SMILES": "N[C@@H](Cc1ccc(O)c(I)c1)C(=O)O", "target": "Iodotyrosine deiodinase (IYD, Thermotoga neapolitana, UniProt B9K712, M41A/Y112A)", "test": "FMN fluorescence quenching", "conditions": "25 °C, M41A/Y112A variant", "Kd [µM]": "0.024 ± 0.002"}
{"SMILES": "C[C@H](NC(=O)[C@@H](N)Cc1ccc(O)cc1)C(=O)NCC(=O)N[C@@H](COP(=O)(O)O)C(=O)N[C@H](C(=O)N[C@@H](CC(=O)O)C(=O)N[C@@H](CCC(=O)O)C(=O)N[C@@H](CC(N)=O)C(=O)N[C@H](C(=O)N[C@@H](CC(=O)O)C(=O)N[C@@H](CO)C(=O)N[C@@H](CCC(=O)O)C(=O)O)[C@@H](C)O)[C@@H](C)OP(=O)(O)O", "target": "Bifunctional polynucleotide phosphatase/kinase, FHA domain (Homo sapiens, UniProt Q96T60)", "test": "binding, ITC", "conditions": "pH 7.5, 10 °C, PNK FHA domain", "Kd [µM]": 1.23}
